Experimental data collected from several papers.
± marks the error that the study gave.

Cc1ccc(OCCN(C)C)cc1C(=O)N[C@H](C)c1cc(-c2cnn(C)c2)cc(-c2ccn(C)n2)c1
half-life (mouse liver microsomes): 1.47 h

CC[C@H](C)[C@@H]1NC(=O)[C@H](Cc2ccc(O)cc2)NC(=O)[C@@H](N)Cn2cc(nn2)CCCC[C@@H](C(=O)N2CCC[C@H]2C(=O)N[C@@H](CC(C)C)C(=O)NCC(N)=O)NC(=O)[C@H](CC(N)=O)NC(=O)[C@H](CCC(N)=O)NC1=O
half-life (RP-HPLC-MS; human pregnancy serum; 37 °C): > 48 h

CCCC[C@H](NC(=O)[C@H](Cc1ccccc1)NC(=O)CNC(=O)[C@@H](C)NC(=O)[C@@H](N)Cc1ccc(O)cc1)C(=O)N1CCC[C@H]1C(=O)N[C@@H](CC(C)C)C(=O)N[C@@H](CO[C@@H]1O[C@H](CO)[C@@H](O)[C@H](O)[C@H]1O)C(=O)N[C@@H](Cc1c[nH]c2ccccc12)C(=O)NCc1cc(C(F)(F)F)cc(C(F)(F)F)c1
half-life (rat plasma; 50 µg/mL, 37 °C): > 6 h

CC(COC(=O)c1ccccc1)OC(=O)C(N)Cc1ccccc1 (mixture of isomers)
half-life (isotonic buffer; pH 6.0, 37 °C): > 30 h

CC[C@H](C)[C@@H]1NC(=O)[C@H](Cc2ccc(O)cc2)NC(=O)[C@@H](N)CSCSC[C@@H](C(=O)N2CCC[C@H]2C(=O)N[C@@H](CC(C)C)C(=O)NCC(N)=O)NC(=O)[C@H](CC(N)=O)NC(=O)[C@H](CCC(N)=O)NC1=O
half-life (phosphate buffer; 0.1 mg/mL, pH 7.0, 40 °C): 816 ± 28.8 h

CN(C)C(=O)Oc1ccc(/C=C(\C#N)C(=O)NCCCNC(=O)/C(C#N)=C/c2ccc(OC(=O)N(C)C)c(OC(=O)N(C)C)c2)cc1OC(=O)N(C)C
half-life (rat plasma (Wistar, male); 100 µM, pH 7.4, 37 °C, plasma share 5 % raised to 80 %): > 24 h

COc1ccc2nc(C)cc(OCC(=O)Nc3cc(C)cc(C)c3)c2c1
half-life (mouse liver microsomes): < 0.05 h

O=C1CC2(C1)C(=O)[O][Pt]1([Cl])([O]C(=O)C(F)(F)F)([NH][C@@H]3CCCC[C@H]3[NH]1)[O]C2=O
half-life (HPLC; MeOH/PBS 1:9 v/v; pH 7.4, 37 °C, PBS 7.87 mM): 0.833 to 1 h

CCC(CC)OC1C=C(C(=O)OC(C)OC(=O)C(N)C(C)C)CC(NC(=N)N)C1NC(C)=O (mixture of isomers)
half-life (Caco-2 cell homogenate; pH 7.4, 37 °C, 500 µg/mL protein): 0.238 ± 0.128 h

CC(C)(C)NC(=O)[C@@H]1C[C@@H]2CCCC[C@@H]2CN1C[C@@H](OC(=O)CCC(=O)OC[C@H](O)[C@H]1OC(=O)C(O)=C1O)[C@H](Cc1ccccc1)NC(=O)[C@H](CC(N)=O)NC(=O)c1ccc2ccccc2n1
half-life (Caco-2 cells): 5.73 ± 0.74 h

Cc1ccc2nc(C(F)(F)F)c(C(=O)NCc3cccc(Cl)c3)n2c1
half-life (human liver microsomes): < 0.05 h

C/C(=N\OCCCN1CCCCC1)c1ccc(C(F)(F)F)cc1
half-life (mouse plasma): > 12.8 h

CC(COC(=O)c1ccccc1)OC(=O)C(N)C(C)C (mixture of isomers)
half-life (rat intestinal lumenal perfusate; 37 °C): > 2 h

CNc1nc(SC)nc2ccccc12
half-life (human liver microsomes): 0.112 h

CC[C@H](C)[C@H](NC(=O)[C@@H](NC(=O)[C@H](CC(N)=O)NC(=O)[C@H](CCC(N)=O)NC(=O)[C@@H]1CCCN1C(=O)[C@@H](NC(=O)[C@H](Cc1ccc(O)cc1)NC(=O)CNC(=O)[C@H](Cc1ccc(O)cc1)NC(=O)[C@H](Cc1c[nH]c2ccccc12)NC(=O)[C@H](Cc1c[nH]cn1)NC(=O)[C@H](Cc1ccc(O)cc1)NC(=O)CCOCCOCCOCCOCCOCCOCCC(=O)NCCCN(CCCNC(=O)CCOCCOCCOCCOCCOCCOCCC(=O)N[C@@H](Cc1ccc(O)cc1)C(=O)N[C@@H](Cc1c[nH]cn1)C(=O)N[C@@H](Cc1c[nH]c2ccccc12)C(=O)N[C@@H](Cc1ccc(O)cc1)C(=O)NCC(=O)N[C@@H](Cc1ccc(O)cc1)C(=O)N[C@H](C(=O)N1CCC[C@H]1C(=O)N[C@@H](CCC(N)=O)C(=O)N[C@@H](CC(N)=O)C(=O)N[C@H](C(=O)N[C@H](C(=O)O)[C@@H](C)CC)C(C)C)[C@@H](C)O)CC(=O)NCCOCCOCCOCCOCCC(=O)N[C@@H](CCCCNC(=O)CC[C@H](C(=O)O)N1CCN(CC(=O)O)CCN(CC(=O)O)CC1)C(N)=O)[C@@H](C)O)C(C)C)C(=O)O [gallium-68 labelled]
half-life (radio-HPLC; human serum; 37 °C): 1.4 h

CCn1ccc(-c2cc(-c3cnn(C)c3)cc([C@@H](C)NC(=O)c3cc(OCCN(C)C)ccc3C)c2)n1
half-life (mouse liver microsomes): 1.37 h

CC(C)[C@H](NC(=O)[C@H](CCCNC(=N)N)NC(=O)[C@H](CCC(=O)O)NC(=O)[C@H](CCCNC(=N)N)NC(=O)[C@@H](NC(=O)[C@H](CCCNC(=N)N)NC(=O)[C@@H](NC(=O)[C@@H]1CCCN1C(=O)[C@H]1CCCN1C(=O)[C@@H](NC(=O)[C@H](CCCNC(=N)N)NC(=O)[C@@H](NC(=O)[C@H](CCCNC(=N)N)NC(=O)[C@@H](NC(=O)[C@H](CCCNC(=N)N)NC(=O)[C@@H](NC(=O)[C@@H](N)CCCCN)C(C)C)C(C)C)C(C)C)C(C)C)[C@@H](C)O)C(C)C)C(=O)N[C@@H](CCCCN)C(N)=O
half-life (serum 25%): 5 h

CC(C)[C@H](NC(=O)[C@H]1CCC[C@@H]1NC(=O)[C@H](CC(N)=O)NC(=O)[C@H](CCCNC(=N)N)NC(=O)[C@H]1CCC[C@@H]1N)C(=O)N[C@@H](Cc1ccccc1)C(=O)N[C@H]1CCC[C@@H]1C(=O)N[C@@H](Cc1ccccc1)C(=O)N[C@@H](Cc1ccc(O)cc1)C(=O)N[C@H]1CCC[C@@H]1C(=O)N[C@H](C(=O)N[C@@H](CC(=O)O)C(N)=O)[C@@H](C)O
half-life (LC-MS; human serum; 10 µM, 37 °C): > 24 h

N=C(N)NCCC[C@@H]1NC(=O)[C@H](CCCNC(=N)N)NC(=O)[C@H](CCCNC(=N)N)NC(=O)[C@H](CCCNC(=N)N)NC(=O)[C@H](Cc2c[nH]c3ccccc23)NC(=O)[C@H](CCCNC(=N)N)NC(=O)[C@H](CCCNC(=N)N)NC(=O)[C@@H](N)CCCn2cc(nn2)C[C@@H](C(N)=O)NC1=O
half-life (trypsin degradation, HPLC; PBS; pH 7.4, 37 °C, with: trypsin 0.1 ng/mL): 0.333 h

CC[C@H](C)[C@@H]1NC(=O)[C@H](CC(N)=O)NC(=O)[C@@H]2CCCN2C(=O)[C@@H](NC(=O)[C@H](CC(N)=O)NC(=O)[C@@H](N)CCC(N)=O)COC(=O)[C@H](CCSC)NC(=O)[C@H](Cc2c[nH]c3ccccc23)NC(=O)[C@H](CCC(N)=O)NC(=O)CNC(=O)[C@H](Cc2ccccc2)NC1=O
half-life (PBS with chymotrypsin; 0.28 mM, pH 7.2, 37 °C, with: chymotrypsin 50 nM): ~4 h

N=C(N)NCCC[C@@H](NC(=O)[C@H](Cc1ccc(O)cc1)NC(=O)CC[P+](c1ccccc1)(c1ccccc1)c1ccccc1)C(=O)N[C@@H](Cc1ccccc1)C(=O)N[C@@H](CCCCN)C(N)=O
half-life (trypsin cleavage; 1 µM, pH 7.4, room temperature): 20 h

Cc1ccc2nc(C)c(C(=O)NCc3ccc(C(F)(F)F)cc3)n2c1
half-life (marmoset liver microsomes; 2 µM): 0.167 h

C#Cc1c(F)ccc2cc(O)cc(-c3ncc4c(N5CC6CCC(C5)N6C(=O)CC(C)CC(=O)OCC)nc(OC[C@@]56CCCN5C[C@H](F)C6)nc4c3F)c12 (stereo partly drawn)
half-life (mouse whole blood; 1 µM): 0.428 h

CN[C@@H]1[C@H](O)[C@H](NC)[C@H]2O[C@]3(O)[C@H](O[C@@H]2[C@H]1O)O[C@H](C)C[C@@]3(O)CNCc1ccc(F)cc1
half-life (rat liver microsomes): 6.8 h

C[C@H](N)C(=O)N[C@@H](CCCCN)C(=O)NCC(=O)N[C@@H](Cc1cccc(I)c1)C(=O)O
half-life (50 µM, pH 7.4, 25 °C, with: trypsin): 0.35 h

c1cc2c(s1)CCOC21CCN(Cc2ccc3c(c2)OCCO3)CC1
half-life (human liver microsomes): 0.0867 h

N#Cc1ccc(NC(=O)c2cccnc2)cc1Cl
half-life (chemical stability; buffer; 5 µM, pH 10.0, 37 °C): 0.653 ± 0.145 h

CC(=O)N[C@@H](Cc1ccc(O)cc1)C(=O)N[C@@H](CCCNC(=N)N)C(=O)N[C@@H](Cc1ccccc1)C(=O)NCCC(=O)N[C@@H](CCCNC(=N)N)C(=O)N[C@@H](CC(N)=O)C(=O)NCCC(=O)N[C@H](C(=O)N[C@@H](Cc1ccccc1)C(=O)NCCC(=O)N[C@@H](Cc1ccccc1)C(=O)N[C@@H](Cc1ccc(O)cc1)C(=O)NCCC(=O)N[C@H](C(=O)N[C@@H](CC(=O)O)C(N)=O)[C@@H](C)O)C(C)C
half-life (LC-MS; human serum; 10 µM, 37 °C): 0.59 h

CC(C)[C@H](N)C(=O)OCOC(=O)c1ccccc1.O=C(O)C(F)(F)F
half-life (isotonic buffer; pH 1.2, 37 °C): 10.5 h

C#Cc1c(F)ccc2cc(O)cc(-c3ncc4c(N5CC6CCC(C5)N6C(=O)OCCCCC)nc(OC[C@@]56CCCN5C[C@H](F)C6)nc4c3F)c12
half-life (measured: prodrug disappearance; mouse whole blood; 60 min): stable
